Assay results from different studies.
Organism: Escherichia coli

| SMILES | assay | system | setting | MIC |
| --- | --- | --- | --- | --- |
| CC1(C)C(NC(=O)C(=NOC2(C(=O)O)CC2)c2csc(N)n2)C(=O)N1OS(=O)(=O)O (centres unmarked) |  | 13-1, NDM-positive | compound alone | 2 µg/mL |
| CC[C@H](C)[C@H](NC(=O)[C@H](Cc1c[nH]c2ccccc12)NC(=O)[C@H](CCCNC(=N)N)NC(=O)[C@@H]1CCCN1C(=O)[C@H](CCCNC(=N)N)NC(=O)[C@@H]1CCCN1C(=O)[C@H](CC(C)C)NC(=O)[C@H](Cc1ccc(O)cc1)NC(=O)[C@@H]1CCCN1C(=O)[C@@H]1CCCN1C(=O)[C@H](CCCCN)NC(=O)[C@H](CC(=O)O)NC(=O)[C@@H](N)C(C)C)C(=O)N[C@@H](CCCNC(=N)N)C(=O)N[C@H](CCCNC(=N)N)C(=O)N[C@H](C(=O)N[C@@H](Cc1ccc(O)cc1)C(=O)N[C@@H](CC(N)=O)C(=O)N[C@H](CCCNC(=N)N)C(N)=O)[C@@H](C)CC | broth microdilution | ATCC 25922 | 18 h, 37 °C, 25% MHB2 | 8 µg/mL |
| CSCC[C@H](NC=O)C(=O)N[C@@H](CCCNC(=N)N)C(=O)N[C@H](C(=O)NCC(=O)N[C@@H](CC(N)=O)C(=O)N[C@@H](C)C(=O)N[C@@H](CC(N)=O)C(=O)O)[C@@H](C)O | broth dilution | K12 MG1655 wild type |  | > 200 µM |
| CC(C)C[C@H](NC(=O)[C@@H](NC(=O)[C@H](CCCCN)NC(=O)[C@H](CCCCN)NC(=O)[C@H](CC(C)C)NC(=O)[C@H](Cc1c[nH]c2ccccc12)NC(=O)[C@H](CCCCN)NC(=O)[C@H](Cc1c[nH]c2ccccc12)NC(=O)[C@H](CC(C)C)NC(=O)[C@H](CCCCN)NC(=O)[C@H](CCCCN)NC(=O)[C@@H](N)C(C)C)C(C)C)C(N)=O |  |  | 24 h, 37 °C, Mueller-Hinton broth, no additive | 16 µM |
| CC[C@H](C)[C@H](NC(=O)[C@@H](CCCNC(=N)N)NC(=O)[C@H](CCCNC(=N)N)NC(=O)[C@@H]1CCCN1C(=O)[C@@H]1CCCN1C(=O)[C@H](CCCNC(=N)N)NC(=O)[C@@H]1CCCN1C(=O)[C@H](CCCNC(=N)N)NC(=O)[C@@H]1CCCN1C(=O)[C@H](CC(C)C)NC(=O)[C@H](Cc1ccc(O)cc1)NC(=O)[C@H](Cc1c[nH]cn1)NC(=O)[C@@H]1CCCN1C(=O)[C@H](CCCCN)NC(=O)[C@H](CC(=O)O)NC(=O)[C@@H](N)C(C)C)C(=O)N[C@@H](Cc1ccc(O)cc1)C(=O)N[C@@H](CC(N)=O)C(=O)N[C@H](CCCNC(=N)N)C(N)=O | broth microdilution | MC4100 | 18 h, 37 °C, 25% MHB2 | 8 µg/mL |
| CC(C)C[C@@H](NC(=O)[C@@H](CC(C)C)NC(=O)[C@@H](CCCCN)NC(=O)[C@@H](CCCCNC(=O)[C@@H](CC(C)C)NC(=O)[C@@H](CC(C)C)NC(=O)[C@@H](CCCCNC(=O)[C@@H](CC(C)C)NC(=O)[C@@H](CCCCN)NC(=O)[C@@H](CCCCNC(=O)[C@@H](CC(C)C)NC(=O)[C@H](N)CCCCN)NC(=O)[C@@H](CC(C)C)NC(=O)[C@H](N)CCCCN)NC(=O)[C@@H](CC(C)C)NC(=O)[C@@H](CCCCN)NC(=O)[C@@H](CCCCNC(=O)[C@@H](CC(C)C)NC(=O)[C@H](N)CCCCN)NC(=O)[C@@H](CC(C)C)NC(=O)[C@H](N)CCCCN)NC(=O)[C@@H](CC(C)C)NC(=O)[C@@H](CC(C)C)NC(=O)[C@@H](CCCCNC(=O)[C@@H](CC(C)C)NC(=O)[C@@H](CCCCN)NC(=O)[C@@H](CCCCNC(=O)[C@@H](CC(C)C)NC(=O)[C@H](N)CCCCN)NC(=O)[C@@H](CC(C)C)NC(=O)[C@H](N)CCCCN)NC(=O)[C@@H](CC(C)C)NC(=O)[C@@H](CCCCN)NC(=O)[C@@H](CCCCNC(=O)[C@@H](CC(C)C)NC(=O)[C@H](N)CCCCN)NC(=O)[C@@H](CC(C)C)NC(=O)[C@H](N)CCCCN)C(N)=O | broth microdilution | Escherichia coli blaOXA-48 | 20 h, 37 °C | 16 µg/mL |
| CC1(C)[C@H](NC(=O)/C(=N\OCC(=O)N2CCC(C(=O)O)CC2)c2csc(N)n2)C(=O)N1OS(=O)(=O)O | agar dilution | 08-85, mcr-1 |  | 8 µg/mL |
| CC(=O)N[C@@H](CC(C)C)C(=O)N[C@H]1CSSC[C@@H](C(=O)N2CCC[C@H]2C(N)=O)NC(=O)[C@H]([C@@H](C)O)NC(=O)[C@H](C(C)C)NC(=O)[C@H]([C@@H](C)O)NC(=O)CNC(=O)[C@H](CC(C)C)NC(=O)[C@H](Cc2ccccc2)NC(=O)[C@H](Cc2ccc(O)cc2)NC(=O)[C@H](CC(C)C)NC(=O)[C@H](CCCCN)NC(=O)[C@H](Cc2ccccc2)NC(=O)[C@H](CCCNC(=N)N)NC(=O)[C@H](CCC(N)=O)NC(=O)[C@H](CC(C)C)NC(=O)[C@H](CCCCN)NC(=O)[C@@H]2CCCN2C(=O)[C@H](CCCCN)NC(=O)[C@H](C(C)C)NC(=O)[C@H](CCCCN)NC(=O)[C@H](Cc2ccc(O)cc2)NC(=O)[C@H]([C@@H](C)O)NC1=O | broth dilution | laboratory strain | 24 h | 1.25 to 2.5 µM |
| CC[C@H](C)[C@H](NC(=O)[C@@H](NC(=O)[C@H](CCCCN)NC(=O)[C@H](CCC(N)=O)NC(=O)[C@@H](NC(=O)[C@H](Cc1c[nH]c2ccccc12)NC(=O)[C@H](CCCCN)NC(=O)[C@H](CCCCN)NC(=O)[C@H](CC(C)C)NC(=O)[C@H](CCCNC(=N)N)NC(=O)[C@H](Cc1ccccc1)NC(=O)[C@@H](N)C(C)C)[C@@H](C)CC)C(C)C)C(N)=O |  |  | 24 h, 37 °C, Mueller-Hinton broth, FeCl3 4 µM | 32 µM |
| CC[C@H](C)[C@H](NC(=O)[C@@H](CCCNC(=N)N)NC(=O)[C@H](CCCNC(=N)N)NC(=O)[C@@H]1CCCN1C(=O)[C@@H]1CCCN1C(=O)[C@H](CCCNC(=N)N)NC(=O)[C@@H]1CCCN1C(=O)[C@H](CCCNC(=N)N)NC(=O)[C@@H]1CCCN1C(=O)[C@H](CC(C)C)NC(=O)[C@H](Cc1cc(I)c(O)c(I)c1)NC(=O)[C@@H]1CCCN1C(=O)[C@@H]1CCCN1C(=O)[C@H](CCCCN)NC(=O)[C@H](CC(=O)O)NC(=O)[C@@H](N)C(C)C)C(=O)N[C@@H](Cc1ccc(O)cc1)C(=O)N[C@@H](CC(N)=O)C(=O)N[C@H](CCCNC(=N)N)C(N)=O | broth microdilution | ATCC 25922 | 18 h, 37 °C, 25% MHB2 | > 128 µg/mL |
| CC(C)C[C@H](NC(=O)[C@H](CCCCN)NC(=O)C1CCCC=CCCC(NC(=O)[C@H](CCCCN)NC(=O)[C@@H](N)CC(C)C)C(=O)N[C@@H](CCCCN)C(=O)NC2CCC=CCCCC(NC(=O)[C@H](CCCCN)NC(=O)CNC(=O)[C@H]3CCCN3C(=O)[C@H](CCCCN)NC2=O)C(=O)N[C@@H](CCCCN)C(=O)N1)C(N)=O (some centres unmarked) | broth microdilution | ATCC 25922, Mueller-Hinton broth | 18 h, 37 °C | 64 µM |
| CC(C)C[C@H](NC(=O)[C@@H](NC(=O)[C@H](CCCNC(=N)N)NC(=O)[C@H](CCC(N)=O)NC(=O)[C@H](Cc1ccccc1)NC(=O)[C@H](Cc1ccc(O)cc1)NC(=O)[C@H](CC(N)=O)NC(=O)[C@H](Cc1c[nH]c2ccccc12)NC(=O)[C@@H](NC(=O)[C@H](CCCNC(=N)N)NC(=O)[C@H](CCCCN)NC(=O)[C@@H](N)Cc1ccccc1)C(C)C)C(C)C)C(=O)N[C@H](C(=O)N[C@@H](CCCCN)C(=O)N[C@@H](CCCCN)C(=O)N[C@@H](Cc1ccc(O)cc1)C(N)=O)C(C)C | broth dilution | ATCC 25922, Mueller-Hinton broth | 24 h, 37 °C | 50 µM |
| CCCCCCCC(=O)N[C@@H](CCN)C(=O)N[C@H](C(=O)N[C@@H](CCN)C(=O)N[C@H]1CCNC(=O)[C@H]([C@@H](C)O)NC(=O)[C@H](CCN)NC(=O)[C@H](CCN)NC(=O)[C@H](CCCc2ccccc2)NC(=O)[C@@H](Cc2ccccc2)NC(=O)[C@H](CCN)NC1=O)[C@@H](C)O | broth microdilution | ATCC 25922 |  | < 0.125 µg/mL |
| Cc1ccc2[nH]c3c(c2c1)CCCC3NCCc1ccc(O)cc1 (centres unmarked) | broth microdilution | O-19592 |  | > 128 µg/mL |
| CC[C@H](C)[C@H](NC(=O)[C@@H](CCCNC(=N)N)NC(=O)[C@H](CCCNC(=N)N)NC(=O)[C@@H]1CCCN1C(=O)[C@@H]1CCCN1C(=O)[C@H](CCCNC(=N)N)NC(=O)[C@@H]1CCCN1C(=O)[C@H](CCCNC(=N)N)NC(=O)[C@@H]1CCCN1C(=O)[C@H](CC(C)C)NC(=O)[C@H](Cc1ccc(O)cc1)NC(=O)[C@@H]1CCCN1C(=O)[C@H](Cc1ccc(O)cc1)NC(=O)[C@H](CCCCN)NC(=O)[C@H](CC(=O)O)NC(=O)[C@@H](N)C(C)C)C(=O)N[C@@H](Cc1ccc(O)cc1)C(=O)N[C@@H](CC(N)=O)C(=O)N[C@H](CCCNC(=N)N)C(N)=O | broth microdilution | BW25113 | 18 h, 37 °C, 25% MHB2 | 16 µg/mL |
| CC(C)[C@H](NC(=O)[C@H](Cc1ccc(O)cc1)NC(=O)[C@H](CS)NC(=O)[C@@H](NC(=O)[C@H](CCCNC(=N)N)NC(=O)[C@H](Cc1ccccc1)NC(=O)[C@H](CS)NC(=O)[C@H](Cc1c[nH]c2ccccc12)NC(=O)[C@@H](N)CCCNC(=N)N)C(C)C)C(=O)NCC(=O)N[C@@H](Cc1ccccc1)C(=O)N[C@@H](CS)C(=O)N[C@@H](Cc1ccc(O)cc1)C(=O)N[C@@H](Cc1c[nH]c2ccccc12)C(=O)N[C@@H](CCCCN)C(=O)N[C@@H](CS)C(=O)N[C@@H](CCCNC(=N)N)C(=O)O | broth microdilution | ATCC 25922, Mueller-Hinton broth | 16 to 20 h, 37 °C | 17.6 µg/mL |
| CC(C)C[C@@H](NC(=O)[C@H](NC(=O)[C@@H](CCCCN)NC(=O)[C@@H](CCCCN)NC(=O)[C@@H](CC(C)C)NC(=O)[C@@H](Cc1c[nH]c2ccccc12)NC(=O)[C@@H](CCCCN)NC(=O)[C@@H](CC(C)C)NC(=O)[C@@H](CC(C)C)NC(=O)[C@@H](CCCCN)NC(=O)[C@@H](CCCCN)NC(=O)[C@H](N)C(C)C)C(C)C)C(N)=O |  |  | 24 h, 37 °C, Mueller-Hinton broth, NaCl 150 mM | 8 µM |
| CC[C@H](C)[C@H](NC(=O)[C@@H](CCCNC(=N)N)NC(=O)[C@H](CCCNC(=N)N)NC(=O)[C@@H]1CCCN1C(=O)[C@@H]1CCCN1C(=O)[C@H](CCCCNC(=N)N)NC(=O)[C@@H]1CCCN1C(=O)[C@H](CCCNC(=N)N)NC(=O)[C@@H]1CCCN1C(=O)[C@H](CC(C)C)NC(=O)[C@H](Cc1ccc(O)cc1)NC(=O)[C@@H]1CCCN1C(=O)[C@@H]1CCCN1C(=O)[C@H](CCCCN)NC(=O)[C@H](CC(=O)O)NC(=O)[C@@H](N)C(C)C)C(=O)N[C@@H](Cc1ccc(O)cc1)C(=O)N[C@@H](CC(N)=O)C(=O)N[C@H](CCCNC(=N)N)C(N)=O | broth microdilution | ATCC 25922 | 18 h, 37 °C, 25% MHB2 | 16 µg/mL |
| CC1(C)S[C@@H]2[C@H](NC(=O)[C@H](NC(=O)C3=C(O)C(c4ccccc4F)NC3=O)c3ccccc3)C(=O)N2[C@H]1C(=O)O (some centres unmarked) | broth microdilution | isolate IU 356 A, KPC-3, VIM-1, TEM | no clavulanic acid | > 200 µg/mL |
| COc1c(NC(=O)c2ccc(NC(=O)c3ccc(NC(=O)[C@H](CC(N)=O)NC(=O)c4ccc(NC(=O)[C@@H](N)Cc5ccccc5)cc4)cc3)c(OC)c2O)ccc(C(=O)O)c1O |  | glutathione S-transferase-like clone | 16 h, 37 °C | 16 µg/mL |
